Measured values pooled from the literature.
Values joined by “and” are separate records of one study, mostly repeats; a detail may differ. Numbers after ± are the reported error.

O=c1ccc2ccccc2o1  chance response (HepG2; cell membrane permeability; concentration not given, 24 h, necrosis and apoptosis panel): 0.07%
CCCc1nc(N)[nH]c(=O)c1Br  minimum cytotoxic concentration (HeLa; cell morphology alteration): > 100 µM
Oc1ccc(C(c2ccc(O)cc2)(C(F)(F)F)C(F)(F)F)cc1  necrotic cells (HepG2 spheroids; annexin V-FITC/PI flow cytometry; 1 µM, 96 h): 32.4 ± 11.3%
CC[C@H](C)[C@H](NC(=O)[C@H](CCCCN)NC(=O)[C@H](CO)NC(=O)CNC(=O)[C@H](CC(C)C)NC(=O)[C@@H](N)Cc1c[nH]c2ccccc12)C(=O)N[C@@H](CCCCN)C(=O)N[C@@H](C)C(=O)N[C@@H](C)C(=O)N[C@@H](CCCCN)C(=O)N[C@@H](CCSC)C(=O)N[C@@H](CCCCN)C(=O)N[C@H](C(=O)NCC(=O)N[C@@H](CCSC)C(=O)N[C@@H](Cc1c[nH]c2ccccc12)C(=O)NCC(=O)N[C@@H](C)C(=O)N[C@H](C(=O)NCC(=O)N[C@@H](CC(C)C)C(=O)N[C@@H](CCCNC(=N)N)C(=O)N[C@@H](Cc1c[nH]cn1)C(=O)N[C@@H](CC(N)=O)C(=O)O)C(C)C)C(C)C  IC50 (HUVEC; cytotoxicity, MTT; 24 h, 37 °C): > 200 µM
CC(=N)S  viability (THLE-2, 3D culture; MTT; 400 µM, 72 h): 75.8%
CC(C)[C@H](NC(=O)[C@H](CCCNC(=N)N)NC(=O)[C@H](Cc1c[nH]c2ccccc12)NC(=O)[C@H](CCCNC(=N)N)NC(=O)[C@H](Cc1c[nH]c2ccccc12)NC(=O)[C@H](Cc1c[nH]c2ccccc12)NC(=O)[C@H](Cc1c[nH]c2ccccc12)NC(=O)[C@H](CCCNC(=N)N)NC(=O)[C@H](Cc1c[nH]c2ccccc12)NC(=O)[C@H](CCCNC(=N)N)NC(=O)CN)C(N)=O  LC50 (PK-15): 119 µM
O=S(=O)(c1ccc(O)cc1)c1ccc(O)cc1  late apoptotic cells (HepG2 spheroids; annexin V-FITC/PI flow cytometry; 10 µM, 24 h): 16.1 ± 5.01%
NC12CC3CC(CC(C3)C1)C2  IC50 (Plasmodium falciparum; GB4): 10 µM
Cn1c(C(=O)Nc2ccc3c(c2)OCCO3)cc2c(=O)n3ccccc3nc21  viability (Vero; MTT; 6.3 µM, 24 (unit not given)): 65.5%
CC(CCc1ccccc1)NC(C)C(O)c1ccc(O)cc1 (stereo not shown)  IC50 (Plasmodium falciparum; 3D7): 12.6 µM
CC(C)C[C@H](NC(=O)[C@H](C)NC(=O)[C@@H](NC(=O)[C@H](CCCNC(=N)N)NC(=O)[C@H](CC(C)C)NC(=O)[C@H](Cc1c[nH]c2ccccc12)NC(=O)[C@@H]1CCCN1C(=O)[C@@H](N)CCCCN)C(C)C)C(=O)N[C@@H](CS)C(=O)N1CCC[C@H]1C(=O)NCC(=O)O  viability (Vero; WST-1; 256 µM, 24 h): 124% and 120% and 117%
Cc1cc(C(C)(C)c2ccc(O)c(C)c2)ccc1O  necrotic cells (HepG2 spheroids; annexin V-FITC/PI flow cytometry; 10 µM, 24 h): 8.02 ± 3.22%
CC(C)C[C@H](NC(=O)[C@H](C)NC(=O)[C@H](CCCNC(=N)N)NC(=O)[C@H](CC(C)C)NC(=O)[C@H](CC(C)C)NC(=O)[C@H](CCCNC(=N)N)NC(=O)[C@@H]1CCCN1C(=O)[C@H](CC(C)C)NC(=O)[C@H](CC(=O)O)NC(=O)[C@H](CCCNC(=N)N)NC(=O)[C@H](CC(C)C)NC(=O)[C@H](CC(C)C)NC(=O)[C@H](CCCNC(=N)N)NC(=O)[C@H](Cc1ccc(O)cc1)NC(=O)[C@H](CCCNC(=N)N)NC(=O)[C@@H]1CCCN1C(=O)[C@H](CC(C)C)NC(=O)[C@H](C)NC(=O)[C@H](CCCNC(=N)N)NC(=O)[C@@H](N)CC(C)C)C(=O)N[C@@H](CC(=O)O)C(=O)N[C@@H](C)C(=O)N[C@@H](CCCNC(=N)N)C(=O)N1CCC[C@H]1C(=O)N[C@@H](Cc1ccccc1)C(=O)N[C@@H](C)C(=O)N[C@@H](CCC(=O)O)C(=O)N[C@@H](C)C(=O)N[C@H](C(=O)N[C@@H](CO)C(=O)N[C@@H](Cc1c[nH]c2ccccc12)C(=O)NCC(=O)N[C@@H](CCCNC(=N)N)C(=O)N[C@@H](CC(C)C)C(=O)NCC(=O)N[C@@H](C)C(=O)N[C@@H](CCCNC(=N)N)C(=O)N[C@@H](CCC(N)=O)C(=O)N[C@@H](CCCNC(=N)N)C(=O)N[C@@H](CCCNC(=N)N)C(=O)N[C@@H](CCC(N)=O)C(=O)N[C@@H](CO)C(=O)N[C@@H](CCCNC(=N)N)C(=O)O)[C@@H](C)O  CC50 (PMA-differentiated THP-1; cell viability, MTT; 24 h): 21.2 µM

Excerpt of the above:
O=c1ccc2ccccc2o1  chance response (HepG2; cell membrane permeability; concentration not given, 24 h, necrosis and apoptosis panel): 0.07%
